Results collected from several papers.
A part holds a random share of what one study measured. Changes are numbered by the printed parent chain.

Set 1
Target: Sal-like protein 4, full length isoform A (SALL4, Homo sapiens, UniProt Q9UJQ4, residues 1-1053)
UniProt Q9UJQ4, sequence (whole entry, looked up): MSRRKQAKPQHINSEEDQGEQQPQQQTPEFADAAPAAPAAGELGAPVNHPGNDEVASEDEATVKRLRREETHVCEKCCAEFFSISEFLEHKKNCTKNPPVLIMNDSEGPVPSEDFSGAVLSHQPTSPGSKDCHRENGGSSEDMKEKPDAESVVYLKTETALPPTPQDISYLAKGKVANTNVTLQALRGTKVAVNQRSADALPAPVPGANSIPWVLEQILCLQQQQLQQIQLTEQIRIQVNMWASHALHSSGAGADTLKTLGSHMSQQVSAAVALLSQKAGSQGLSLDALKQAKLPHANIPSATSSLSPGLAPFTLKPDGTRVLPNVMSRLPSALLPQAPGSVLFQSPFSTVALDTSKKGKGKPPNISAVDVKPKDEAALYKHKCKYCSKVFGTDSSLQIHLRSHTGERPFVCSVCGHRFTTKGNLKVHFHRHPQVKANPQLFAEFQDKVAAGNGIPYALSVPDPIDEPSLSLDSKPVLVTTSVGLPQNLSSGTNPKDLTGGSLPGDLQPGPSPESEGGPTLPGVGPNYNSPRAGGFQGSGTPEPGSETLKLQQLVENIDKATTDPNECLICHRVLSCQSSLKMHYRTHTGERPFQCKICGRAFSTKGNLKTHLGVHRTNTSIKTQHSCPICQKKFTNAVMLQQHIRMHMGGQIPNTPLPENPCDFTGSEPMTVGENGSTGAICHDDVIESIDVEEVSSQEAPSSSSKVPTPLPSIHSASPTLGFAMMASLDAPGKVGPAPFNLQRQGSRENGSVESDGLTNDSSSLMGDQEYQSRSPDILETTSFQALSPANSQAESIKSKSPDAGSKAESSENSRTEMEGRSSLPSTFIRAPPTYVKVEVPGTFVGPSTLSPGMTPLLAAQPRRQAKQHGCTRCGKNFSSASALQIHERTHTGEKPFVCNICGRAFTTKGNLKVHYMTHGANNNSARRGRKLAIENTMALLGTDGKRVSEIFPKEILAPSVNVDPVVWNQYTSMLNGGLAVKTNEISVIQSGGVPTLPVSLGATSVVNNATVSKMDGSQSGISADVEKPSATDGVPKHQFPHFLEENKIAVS
Technique: universal PBM
Molecule type: double-stranded DNA, one strand shown
Matrix: in vitro
Concentration: 600 nM
Notes: 8-mer, flanks averaged, mean of replicates
Reading: higher = stronger binding
| Sequence | E-score |
| --- | --- |
| CCGCGGGC | -0.376 |
| AGAATCCA | -0.0878 |
| CGAAAAAA | 0.254 |
| TAGTGGAA | 0.00105 |
| ACTCGAGG | -0.15 |
| TCCACGCA | -0.0783 |
| GCATCTAC | 0.0404 |
| CACCCAGG | -0.331 |
| TCTTGACA | 0.0841 |
| GCACTCAA | -0.211 |
| TGGGTCAA | -0.169 |
| CAAACGTC | -0.00253 |
| CTCCGCTC | -0.0757 |
| GTGCTGCA | -0.0623 |
| GCAAGTGC | -0.195 |
| AATTGCGG | 0.158 |
| AGGAGGCG | -0.221 |
| AATGTGTC | 0.073 |
| ACCGTGGG | -0.373 |
| CGCGTTGA | -0.181 |
| ATTCCCAC | 0.02 |
| GTTTAGTA | 0.253 |
| AGCAAGGG | -0.0951 |
| ATGTCTTG | 0.177 |
| CGCTGCCA | -0.209 |

Set 2
Target: Prothrombin, mature alpha-thrombin (F2, Homo sapiens, UniProt P00734)
Technique: aptamer microarray, sandwich
Molecule type: DNA with 2'F-ANA
Matrix: in vitro
Concentration: 200 nM
Notes: whole 15-mer aptamer, many near background
Together with: Cy3 exosite-II aptamer, 400 nM
Reading: higher = stronger binding
Sequence: GGTTGGTGTGGTTGG
| Modification | mean fluorescence intensity |
| --- | --- |
| 2'F-ANA at 1 3 4 5 7 9 11 12 15 | 127 a.u. |
| 2'F-ANA at 2 3 4 5 9 11 13 14 | 53.1 a.u. |
| 2'F-ANA at 1 6 8 9 10 13 14 | 52.1 a.u. |
| 2'F-ANA at 2 3 6 7 8 9 10 11 12 14 | 247 a.u. |
| 2'F-ANA at 2 3 4 6 8 10 14 15 | 148 a.u. |
| 2'F-ANA at 1 2 3 4 7 8 9 11 15 | 171 a.u. |
| 2'F-ANA at 1 2 3 4 6 7 9 13 | 83.7 a.u. |
| 2'F-ANA at 2 6 8 9 10 11 13 15 | 94.5 a.u. |
| 2'F-ANA at 6 7 8 9 14 15 | 174 a.u. |
| 2'F-ANA at 1 2 3 5 9 10 14 | 45.9 a.u. |
| 2'F-ANA at 1 2 6 8 13 14 15 | 72.9 a.u. |
| 2'F-ANA at 2 3 5 7 | 118 a.u. |
| 2'F-ANA at 1 2 6 7 10 12 15 | 72.1 a.u. |
| 2'F-ANA at 3 5 8 9 10 11 12 14 | 55.5 a.u. |
| 2'F-ANA at 2 3 5 6 7 9 10 12 13 | 53.4 a.u. |
| 2'F-ANA at 2 5 6 7 8 10 12 13 14 | 48.4 a.u. |
| 2'F-ANA at 6 8 9 10 11 14 15 | 93 a.u. |
| 2'F-ANA at 2 4 7 12 15 | 694 a.u. |

Set 3
Target: ATF7, bZIP domain (human)
Technique: DHFR protein complementation
Matrix: yeast
Notes: single substitutions, most at no-binding floor
Reference: wild-type JUN-FOS pair
Reading: higher = stronger binding
Starting sequence: JUN, bZIP domain (human); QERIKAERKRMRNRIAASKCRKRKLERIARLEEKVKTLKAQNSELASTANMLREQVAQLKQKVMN; partner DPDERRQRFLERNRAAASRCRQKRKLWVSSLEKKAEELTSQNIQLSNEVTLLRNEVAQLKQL
| Change | binding fitness [natural log] |
| --- | --- |
| L59H | -1.53 |
| E32V | -0.886 |
| T48W | -1.32 |
| I28F | -1.21 |
| L52S | -1.44 |
| E33H | -1.16 |
| A29R | -0.874 |
| V56Q | -1.4 |
| I28H | -1.02 |
| A29T | -0.892 |
| E33D | -0.98 |
| E44M | -0.975 |
| R53C | -1.38 |
| L31R | -1.48 |
| N42F | -1.3 |
| S43L | -0.842 |
| A49M | -1.25 |
| Q55R | -0.961 |
| Q55H | -1.05 |

Set 4
Target: RNA binding protein fox-1 homolog 2, RRM domain, GST-SBP tag (RBFOX2, Homo sapiens, UniProt O43251-10, residues 100-194)
Technique: RNA Bind-n-Seq
Molecule type: RNA
Matrix: in vitro
Concentration: 365 nM
Notes: natural RNA segment, single round, ends assumed
Reference: no-protein control
Reading: higher = stronger binding
Constant ends, left off below: GGGAGUUCUACAGUCCGACGAUC … UGGAAUUCUCGGGUGCCAA
Construct (chain): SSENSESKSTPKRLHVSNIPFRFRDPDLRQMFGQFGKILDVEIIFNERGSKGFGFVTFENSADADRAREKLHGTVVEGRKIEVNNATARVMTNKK
| Sequence | RBNS enrichment (R) |
| --- | --- |
| UGAGAGCCAUGCUGUCAGGAGCAAGCUUGCUGCUCCUGUGCUGCCCUGGCCCUGGCCUUGCUUGCCCAUGGUGUGUGUGUCCAGAGGUGUGUGUGAGGCUGCCAGAACAA | 0.694 |
| GCCCUAAAGCAUCCUUUCUUUUACCCACUUAAAAAGCAUACGUGAUUUAUAAACACAGUGCUCUGAAAGGAAUCUUACAGACUGUAUCAGUCUAGCUUUUAAUUAAGUUA | 0.306 |
| UUAUAUCAUUCUGGGUGUGUUCUUACUGACACCAGGGGUCCGCUGCCCCAUGUGUCCUGGUGAGAAAAUAUAUGCCUGGCACAGCUUUUGUAUAGAAAAUUCUUGAGAAG | 0.448 |
| GCUUGAAUAUUUGCUAUAUAGAAAUAUAGUAUGGAAAGUUUUUGGUCUUAAUGUAGCUACUGUGCGGGUCACAGUUUCUCCCAAUGAUUAUGACUGGGACAUUCUUUGGU | 0.682 |
| CUUUUGUGUGUGCGCAUGCUGCCCUCUUAACUGCUUUUAGUAUUCAGAAAGGUUCCAUUUAUGUUUUACUCCUGAAAGUGAAACCCUCUUAGGCAACUUGUUUCAUAUUC | 3.03 |
| CAAAGUUCUCCCAGGCAAGGACCAGCUGCCCAUUCUGAGCCCAGGGCAGCCUCUUCAACCAUUAUUGGUCUAACCUGGCUUGUCAGGAAACCAAGCCCACCCUUCCACAU | 0.393 |
| CUGCCAACCUUUUCCCCCCAAGGGAAAAAAUAUACGCAAGUAUAAAGCAUCUACAUCAAUGUUUAUAAAGCAAUCAUUUGUGAACGCCGUGAUGCUGUUUUGUAACACAA | 0.348 |
| AUCCUUAAUACUGGGAACAGAAUACAACCCAUAUAAAUCAGAUGCAGGUGGUAGUCACAUCACCAGAGUGAUCAGUAUAAAUUUUCUUGGUGUAUCCUUUUCCUUUCAAC | 0.472 |
| CCAUCACAGGCCUGGAGGCCUAGGAGGGAAAAAAUGGUUUUGUGGGCCAGGCCCAAGGUCCCCUUGCUGUGUGCAGCCCAGGGACUUGGUACCAUGCAUCCCAGCUGCUC | 0.242 |
| UAGUUAUGUAAAAGGCUACCCUUGACAAGAAAAGACAUACUGUCAUGUAUUUAUAUUCUAGCAUAGACUAAACUGAAUAAAAAUGCUGAUAACAGGACCUUUAGUAAGCA | 4.5 |
| CCCCACCAACACCAGGAAUUUAGACCUUUUCCCUGCACCACUCUCUUCAUCCUGGGGGCUCUGUUACACUAAUUUGAAUAAACUCUCCCCUUUCUUUGCAACUUCCCAGC | 1.41 |
| GAUACCACAAGUAAAAACUUUAGUUAGUUCAUCUACAAAAGUAUUCAAAAGAAUACAUAGACUGGACACGAAGCUCAAAGGUAGAGUUCGCCUAGCAUGCAUACGAAGCC | 15.9 |

Set 5
Target: ABI1, truncated, D143A, DHFR fusion (Arabidopsis thaliana)
Technique: DHFR PCA, deep sequencing
Matrix: yeast
Notes: methotrexate growth selection, single substitutions
Together with: (+)-ABA 710 µM
Reference: wild-type fitted maximum
Reading: higher = stronger binding
Starting sequence: PYL1, truncated, DHFR fusion (Arabidopsis thaliana); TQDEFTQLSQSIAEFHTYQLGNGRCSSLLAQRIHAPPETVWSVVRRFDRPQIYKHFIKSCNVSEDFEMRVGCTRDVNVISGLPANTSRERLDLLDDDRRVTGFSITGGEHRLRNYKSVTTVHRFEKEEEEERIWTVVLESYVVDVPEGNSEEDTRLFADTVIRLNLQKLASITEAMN; partner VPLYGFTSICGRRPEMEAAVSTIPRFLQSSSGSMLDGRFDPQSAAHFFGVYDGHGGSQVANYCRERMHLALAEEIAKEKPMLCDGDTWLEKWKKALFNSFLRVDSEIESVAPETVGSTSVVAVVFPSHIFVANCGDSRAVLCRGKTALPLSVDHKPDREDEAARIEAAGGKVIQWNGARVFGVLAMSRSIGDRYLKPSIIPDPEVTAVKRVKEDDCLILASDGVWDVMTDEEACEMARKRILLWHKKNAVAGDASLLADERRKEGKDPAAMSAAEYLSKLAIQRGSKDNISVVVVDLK
| Change | relative binding score [%] |
| --- | --- |
| I162N | 71 |
| D3I | 97.6 |
| V70W | 69.7 |
| E151V | 103 |
| L20I | 102 |
| F15E | 68.8 |
| N149Y | 49.9 |
| T6Q | 111 |
| E174A | 94.7 |
| T73C | 99.3 |
| G21W | 93.8 |
| Y18P | 107 |
| L20Y | 95.9 |
| A84N | 41.9 |
| E67I | 110 |

Set 6
Target: PABPC1L2, full length, GST fusion (mouse, UniProt A0ABA7IW68)
Technique: RNAcompete
Molecule type: RNA
Matrix: in vitro
Concentration: 20 nM
Notes: 7-mer, probes averaged, single round
Reference: mean of 7-mers
Reading: higher = stronger binding
Residues (chain): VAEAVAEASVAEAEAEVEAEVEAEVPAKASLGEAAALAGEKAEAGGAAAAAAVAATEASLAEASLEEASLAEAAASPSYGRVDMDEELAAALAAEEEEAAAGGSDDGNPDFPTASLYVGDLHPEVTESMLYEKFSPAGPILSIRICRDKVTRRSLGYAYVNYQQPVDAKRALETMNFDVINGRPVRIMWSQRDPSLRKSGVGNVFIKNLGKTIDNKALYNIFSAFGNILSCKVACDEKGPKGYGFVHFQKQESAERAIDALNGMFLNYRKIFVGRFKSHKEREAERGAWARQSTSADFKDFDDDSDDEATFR
| Sequence | 7-mer Z-score |
| --- | --- |
| CGCGCGA | -0.249 |
| GGGCAUG | 0.303 |
| CCCAAUC | -0.369 |
| GAGUGUG | -0.0971 |
| UGGCAAC | 0.425 |
| CGAUUUU | -0.191 |
| GAUGUUA | -0.215 |
| AAGACUU | 0.115 |
| AUUGGGC | -0.0228 |
| ACGGUGU | -0.128 |
| CGGUCAC | -0.171 |
| UCAUGUG | -0.286 |
| UUAUUAC | -0.271 |
| CCGUUGU | -0.481 |
| UUUUUAC | -0.012 |
| UGGCGUA | -0.122 |
| AGCUUGC | -0.186 |
| CUCCUUC | -0.429 |
| ACGAGUA | 0.00979 |
| UCAUACA | -0.0609 |
| UGCAUCC | -0.197 |

Set 7
Target: CCNF, cyclin fold, Cln2 fusion (human)
Technique: yeast growth competition, sequencing
Matrix: yeast
Notes: strong parent motif
Reference: not given
Reading: higher = stronger binding
Starting sequence: INSM1 docking peptide (human); PKAIRKLHFEDEV
| Change | normalised enrichment score |
| --- | --- |
| I4L | 7.38 |
| L7W | -0.0995 |
| I4P | 7.21 |
| F9T | 0.191 |
| D11A | 7.9 |
| K6D | 0.418 |
| K6Y | 4.97 |
| E12V | 7.67 |
| F9C | 0.144 |
| K2W | 7.59 |
| E12K | 7.68 |
| E12A | 7.92 |
| D11E | 7.89 |
| F9G | -0.168 |
| A3V | 8.09 |
| R5L | 0.504 |
| E12I | 7.97 |
| L7Y | 0.0561 |
| E10S | 7.76 |
| K6F | 4.03 |
| H8I | 8.13 |
| A3G | 6.38 |
| L7P | 0.000974 |
| H8L | 8.21 |
| E10N | 7.07 |

Repeated from above (set 5):
| Change | relative binding score [%] |
| --- | --- |
| I162N | 71 |
| D3I | 97.6 |
| V70W | 69.7 |
| E151V | 103 |
| L20I | 102 |
| F15E | 68.8 |
| N149Y | 49.9 |
| T6Q | 111 |
| E174A | 94.7 |
| T73C | 99.3 |
| G21W | 93.8 |
| Y18P | 107 |
| L20Y | 95.9 |
| A84N | 41.9 |
| E67I | 110 |
